# Results pooled from the literature.
# Each line is one published result; not all experiments were run side by side. Values joined by “and” are separate records of one study, mostly repeats; a detail may differ. ± gives the spread as reported.
SMILES,test,test system,conditions,scale,quantity,value
N#Cc1ccc2c(-c3ccncc3)c(-c3ccc(F)cc3)nn2c1,"kinase binding, competitor, MIB/MS competition, refers to: AKL1",Candida albicans cell lysate,10 µM,reference: DMSO,log2 fold change,0.0697
CC(C)[C@H](NC(=O)[C@H](Cc1ccc(O)cc1)NC(=O)[C@H](Cc1ccc(O)cc1)NC(=O)[C@@H]1CCCN1C(=O)[C@H](CCC(=O)O)NC(=O)[C@H](CCC(=O)O)NC(=O)[C@H](Cc1c[nH]c2ccccc12)NC(=O)[C@@H]1CCCN1C(=O)[C@@H](NC(=O)[C@H](CCC(N)=O)NC(=O)c1ccc2c(c1)C(=O)OC21c2ccc(O)cc2Oc2cc(O)ccc21)C(C)C)C(=O)N[C@H](C(=O)N[C@@H](CCCCN)C(=O)N[C@@H](CCCCN)C(=O)N[C@@H](CO)C(=O)N[C@@H](CO)C(=O)NCC(=O)NCC(N)=O)C(C)C,nerve discrimination,head and neck surgery patients,500 mg,reference: white light,surgeons rating not improved,35.7%
CC(C)C[C@H](NC(=O)[C@@H](Cc1c[nH]c2ccccc12)NC(=O)[C@H](Cc1ccc(O)cc1)NC(=O)[C@H](CO)NC(=O)[C@H](Cc1c[nH]c2ccccc12)NC(=O)[C@H](Cc1c[nH]cn1)NC(=O)[C@@H]1CCC(=O)N1)C(=O)N[C@@H](CCCNC(=N)N)C(=O)N1CCC[C@H]1C(=O)NCC(N)=O,,"Chinese children, central precocious puberty, serum","intramuscular, 22.5 mg day 1, month 6, month 12",,basal LH level,0.29 IU/L
CC(C)n1c(C2CCNCC2)nc2c([N+](=O)[O-])c(Br)c(Br)cc21,,"IDH-mutated AML patients, bone marrow",all dose levels,,minimum blast reduction,-4%
CN[C@@H]1COc2c(S(=O)(=O)NC(=O)Nc3c4c(cc5c3CCC5)CCC4)cnn2C1,refers to: IL-18,"human participants, whole blood ex vivo","450 mg single dose, 48 h, IL-18, circulating, adjusted for, added: LPS/ATP",reference: baseline,inhibition,-45.8%
C[C@H](Oc1ccc(Br)cc1-c1ccon1)C(=O)O,last response peak,"human, tibialis anterior muscle","1200 mg, 30 Hz, single ascending dose",,difference from placebo,-8.68%
CN(C)C(=O)c1cc2cnc(Nc3ccc(N4CCNCC4)cn3)nc2n1C1CCCC1,"RNA-seq GSEA, refers to: HALLMARK_E2F_TARGETS",MB002 tumour,"concentration not given, in vivo","reference: vehicle, direction not given",normalized enrichment score,3.39
O=C(O)CSc1nnc(Br)n1-c1ccc(C2CC2)c2ccccc12,,"mouse, chronic hyperuricaemia model, serum",dose not given,,serum creatinine,35.4 µM and 61.8 µM and 33.8 µM and 34.6 µM and 44.8 µM and 54.4 µM
NC(=O)c1cnc2[nH]ccc2c1N[C@@H]1[C@@H]2CC3C[C@H]1C[C@@](O)(C3)C2,flow cytometry,"Japanese healthy men, blood","oral, 10 mg twice daily, 72 h after day 7 dose",reference: baseline,CD4+ central memory change,-0.43%
COc1ccccc1[C@H](Cn1c(=O)n(C(C)(C)C(=O)O)c(=O)c2c(C)c(-c3ncco3)sc21)OC1CCOCC1,"[1-13C]acetate infusion, isotopomer analysis","overweight or obese healthy men, plasma VLDL-TG palmitate","oral, 200 mg single dose, 9 h post-dose, added: oral fructose",,fractional hepatic DNL,6.79 % new palmitate
CC(=O)c1c(C)c2cnc(Nc3ccc(N4CCNCC4)cn3)nc2n(C2CCCC2)c1=O,immunohistochemistry,"MCF7, mouse xenograft","50 mg/kg, 4 days, 96 h after dose",direction not given,Ki67 H-score,59.7
O=C(O)/C=C/c1nccc2c3ccccc3n(Cc3ccc(C4CC4)cc3)c12,,"mouse, acute hyperuricaemia model, serum","oral, 2 mg/kg, individual animal data",,serum uric acid,419 µM and 468 µM and 307 µM and 378 µM
Cc1c(C)c2c(c(C)c1O)CC[C@@](C)(CCC[C@H](C)CCC[C@H](C)CCCC(C)C)O2,"Cu2+ reduction, CUPRAC",,30 µg/mL,,absorbance,0.552 ± 0.085
COc1nnc2ccc(N3CCC(c4ccc(OCCN5CCN(C)C(=O)[C@H]5C)cc4)CC3)nn12,,"cancer patients, plasma","dose not given, 0 to 3 h, monotherapy cohorts",,plasma MCP-1 level,decreased
O=S(=O)(NCCNC/C=C/c1ccc(Br)cc1)c1cccc2cnccc12,embryonic development,mouse zygotes,"20 µM, 48 h post-hCG",,two-cell embryos,95% and 100%
N#CCC1CCN(c2nc(Nc3ccc(N4CCC(O)CC4)cc3)c3c(=O)[nH]ncc3n2)CC1,Olink multiplex,"human, serum","20 mg, day 29, unit not given",reference: baseline,osteopontin level change,-1.05
COC(=O)c1ccc2c(c1)NC(=O)/C2=C(\Nc1ccc(N(C)C(=O)CN2CCN(C)CC2)cc1)c1ccccc1,,"rat, bleomycin lung fibrosis","oral, 60 mg/kg daily, day 14",,lung hydroxyproline level,no effect
Cc1nc(-c2ccc(OCC(C)C)c(C#N)c2)sc1C(=O)O,,"male mouse, acute hyperuricaemia model, serum","oral, 2 mg/kg, 4 h",,serum uric acid,178 µM
COc1cc2cc(-c3ccc(CC(=O)Nc4cc(C(C)(C)C(F)(F)F)no4)cn3)cnc2cc1OC,RECIST v1.1,RET-altered advanced solid tumour patients,"oral, 100 mg once daily, phase I",,objective response rate,67%
O=C(O)CCc1nccc2c3ccccc3n(Cc3ccc(Br)c4ccccc34)c12,,"mouse, acute hyperuricaemia model, serum","oral, 2 mg/kg",reference: vehicle model,serum uric acid decrease,72.9%
Cc1cc(C)c(CNC(=O)c2cc(Cl)c3c(c2C)O[C@@](C)([C@H]2CC[C@H](N(C)C)CC2)O3)c(=O)[nH]1,,relapsed/refractory B-NHL patients,"dose not given, IWG 2007 criteria",,disease control rate (CR+PR+SD),89%
N=C(N)NCCC[C@H](NC(=O)[C@H](CCCNC(=N)N)NC(=O)[C@H](CCCCN)NC(=O)[C@H](CCC(N)=O)NC(=O)[C@H](CCCCN)NC(=O)[C@H](Cc1ccc(O)cc1)NC(=O)[C@@H](N)CCCCN)C(=O)N[C@@H](CO)C(=O)N[C@@H](Cc1ccc(O)cc1)C(=O)N[C@@H](CCCCN)C(=O)O,,dentin hypersensitivity patients aged 30-40 years,"5 µg/tooth, day 36, unit not given",reference: baseline,VAS change,-41.3 ± 29.5
[Cl-].[Cl-].[Pt+2].[Ru+2].c1ccc(-c2nc3cc4ccccc4cc3nc2-c2ccccn2)nc1.c1cnc2c(c1)ccc1cccnc12.c1cnc2c(c1)ccc1cccnc12,,,"concentration not given, second substitution step, added: L-methionine",,activation enthalpy,6.45 ± 0.478 kcal/mol
CC1(C)OB(c2ccccc2/C=N/NC(=O)c2ccncc2)OC1(C)C,LC-UV,DMEM cell medium,"100 µM, 37 °C, added: H2O2 200 µM",,activation rate constant,0.0934 ± 0.0026 h⁻¹
N#Cc1ccc2c(c1)[C@H]1CCCN(C(=O)c3ccc4[nH]cnc4c3)[C@H]1C2,,"human, Phase II trial","oral, 240 mg once daily, day 28, adjusted mean, SE",,HbA1c change from baseline,0.11%
NCC(=O)Nc1cncc(-c2nn3c(=O)cc(N4CCNCC4)nc3s2)c1,"ADP-induced platelet aggregation, light transmission aggregometry","human stable CAD patients on aspirin, platelets ex vivo","0.05 mg/kg, 5 min post dose, added: 20 µM ADP",reference: placebo difference,inhibition of platelet aggregation,13.2%
C=CCn1c(=O)c2cnc(Nc3ccc(N4CCN(C)CC4)cc3)nc2n1-c1ccc2c(n1)[C@@](O)(CC)CC2,,"OVCAR-3 xenograft, NOD/SCID mouse","100 mg/kg once daily, :4",,tumour growth inhibition,94.4%
CC(C)(O)c1coc(S(=O)(=O)NC(=O)c2cc3ccccc3n2Cc2ccc(C3CC3)c3ccccc23)c1,,"mouse, acute hyperuricaemia model, serum","oral, 2 mg/kg",reference: vehicle model,serum uric acid decrease,74.1%
COc1ccc([C@@H](O)c2cc(-c3ncnc4cc(N5CCOCC5)ccc34)c(F)cc2Cl)nn1,RECIST version 1.1,"patients, advanced solid tumours","200 mg twice daily, added: avelumab",reference: patients,objective response rate,0%
Cc1noc(C)c1-c1cc(C(O)(c2ccccn2)c2ccccn2)c2nc(C3CC3)[nH]c2c1,refers to: CCR2 expression,"human, peripheral blood","1.4 mg, day 8, 1599 study",,maximum inhibition,50.9%
C[C@@H](NC(=O)N1C(=O)[C@H](Cc2ccnc(N)c2)[C@H]1C(=O)O)C1CCCCC1,,human,"iv infusion, 2.25 mg/kg/h, 24 h",,time to aPTT Emax,96 h
O=P(O)(O)C(Cl)(Cl)P(=O)(O)O,,"Mus musculus, sham-operated, meninges","concentration not given, day 1",reference: total area,Iba1-positive area,0.39% and 0.52% and 0.43%
Cc1cn([C@H]2C=C[C@@H](CO)O2)c(=O)[nH]c1=O,barrier function (TEER),human ileal GI microtissue EpiIntestinal-FT,,,IC15,> 100 µM
CN[C@@H](C)C(=O)N[C@H]1CN(S(=O)(=O)c2cccc(S(=O)(=O)N3CC[C@H]4CC[C@@H](C(=O)NC(c5ccccc5)c5ccccc5)N4C(=O)[C@@H](NC(=O)[C@H](C)NC)C3)c2)CC[C@H]2CC[C@@H](C(=O)NC(c3ccccc3)c3ccccc3)N2C1=O,RECIST 1.1,advanced pancreatic cancer patients,"dose not given, efficacy-evaluable, added: AG",,objective response rate,20%
Nc1nc2cc(-c3ccc4ncc(C(=O)N5CCOCC5)n4c3)ccc2o1,RECIST v1.1,advanced solid tumour patients,dose not given,,median partial response duration,7 months
Cc1ccc([C@@H]2O[C@H](CO)[C@@H](O)[C@H](O)[C@H]2O)cc1Cc1ccc(-c2ccc(F)cc2)s1,,Japanese type 2 diabetes patients,"100 mg, day 1",reference: day 0,change in 24-h mean serum insulin,-2.2 µU/mL
OC[C@H]1O[C@@H](c2ccc(Cl)c(Cc3ccc(O[C@H]4CCOC4)cc3)c2)[C@H](O)[C@@H](O)[C@@H]1O,,Japanese type 1 diabetes patients,"10 mg, day 28, 672 h",reference: baseline,systolic blood pressure change,-4.6 mmHg
O=C(O)CNC(=O)Cc1ccccc1,,"ventricular cardiomyocytes, C57BL/6 mouse","dose not given, 0.2 s",,sarcomere length,1.62 µm
OC(CCN1CCCCC1)(c1ccccc1)C1CC2C=CC1C2 (stereo not shown),resting-state EEG,healthy elderly humans,"oral, 4 mg, eyes closed, LS mean",,EEG Alpha2-power Pz-O2,5.1 µV²
N#Cc1ccc2c(c1)[C@H]1CCCN(C(=O)c3ccc4[nH]cnc4c3)[C@H]1C2,,"T2DM patients with overweight or obesity, plasma","oral, 240 mg, day 15 (360 h), multiple dosing, mean",,"plasma 1,5-anhydroglucitol",10.5 µg/mL
C[C@H]1C[C@H]2CSC(N)=N[C@@]2(c2nc(NC(=O)c3ccc(OC(F)F)cn3)cs2)CO1,,"healthy adults, fed, plasma","oral, 200 mg single dose, 48 h","reference: baseline, placebo-adjusted",plasma Aβ1-40 change,-84.3%
CC(c1cc2ccccc2s1)N(O)C(N)=O (stereo not shown),,human blood,"3 µM, added: A23187",,12-HETE level,8470 ± 2990 pg/mL
[Cl-].[Cl-].[Pt+2].[Ru+2].c1ccc(-c2nc3ccccc3nc2-c2ccccn2)nc1.c1cnc2c(c1)ccc1cccnc12.c1cnc2c(c1)ccc1cccnc12,,,"concentration not given, first substitution step, added: L-methionine",,activation enthalpy,6.21 ± 0.478 kcal/mol
CCCCC1(CCCC)CN(c2ccccc2)c2cc(SC)c(OCC(=O)N[C@@H](C(=O)NCC(=O)O)c3ccccc3)cc2S(=O)(=O)C1,refers to: 7α-hydroxy-4-cholesten-3-one,"human, plasma","10 mg once daily, day 1",,plasma C4,13.3 ng/mL
CC(=O)Oc1cc2c(s1)CCN(C(C(=O)C1CC1)c1ccccc1F)C2 (stereo not shown),"platelet aggregation, light transmission aggregometry","human patients, platelet-rich plasma","dose not given, 1 h, inhibition threshold 90%, added: TRAP 5 µM",,patients with inhibition above threshold,0%
CC(C)NCC(O)c1ccc(O)c(O)c1 (stereo not shown),,"ventricular cardiomyocytes, C57BL/6 mouse","dose not given, 0.816 s",,sarcomere length,1.57 µm
N#Cc1ccn2c(-c3ccncc3)c(-c3ccc(F)cc3)nc2c1,"kinase binding, competitor, MIB/MS competition, refers to: NIK1",Candida albicans cell lysate,10 µM,reference: DMSO,log2 fold change,-0.886
CCN1CCN(Cc2ccc(Nc3ncc(F)c(-c4cc(F)c5nc6n(c5c4)[C@H](C)CCC6)n3)nc2)CC1,,human advanced solid tumours,"200 mg, phase Ia monotherapy RECIST 1.1",,complete response,0%
Cn1cc(Nc2nccc(-c3ccc4c(c3)CN(C3COC3)CC[C@H]4NC(=O)c3cn(C(C)(C)C)nn3)n2)cn1,refers to: Fcγ receptor-mediated phagocytosis,"splenic B cells, mice","30 mg/kg, IgD-activated in vivo","reference: vehicle, direction not given",pathway activation z-score,2.5

# For quick reference, copied from above:
SMILES,test,test system,conditions,scale,quantity,value
CN(C)C(=O)c1cc2cnc(Nc3ccc(N4CCNCC4)cn3)nc2n1C1CCCC1,"RNA-seq GSEA, refers to: HALLMARK_E2F_TARGETS",MB002 tumour,"concentration not given, in vivo","reference: vehicle, direction not given",normalized enrichment score,3.39
O=C(O)CSc1nnc(Br)n1-c1ccc(C2CC2)c2ccccc12,,"mouse, chronic hyperuricaemia model, serum",dose not given,,serum creatinine,35.4 µM and 61.8 µM and 33.8 µM and 34.6 µM and 44.8 µM and 54.4 µM
NC(=O)c1cnc2[nH]ccc2c1N[C@@H]1[C@@H]2CC3C[C@H]1C[C@@](O)(C3)C2,flow cytometry,"Japanese healthy men, blood","oral, 10 mg twice daily, 72 h after day 7 dose",reference: baseline,CD4+ central memory change,-0.43%
COc1ccccc1[C@H](Cn1c(=O)n(C(C)(C)C(=O)O)c(=O)c2c(C)c(-c3ncco3)sc21)OC1CCOCC1,"[1-13C]acetate infusion, isotopomer analysis","overweight or obese healthy men, plasma VLDL-TG palmitate","oral, 200 mg single dose, 9 h post-dose, added: oral fructose",,fractional hepatic DNL,6.79 % new palmitate
CC(=O)c1c(C)c2cnc(Nc3ccc(N4CCNCC4)cn3)nc2n(C2CCCC2)c1=O,immunohistochemistry,"MCF7, mouse xenograft","50 mg/kg, 4 days, 96 h after dose",direction not given,Ki67 H-score,59.7
O=C(O)/C=C/c1nccc2c3ccccc3n(Cc3ccc(C4CC4)cc3)c12,,"mouse, acute hyperuricaemia model, serum","oral, 2 mg/kg, individual animal data",,serum uric acid,419 µM and 468 µM and 307 µM and 378 µM
